Assay results gathered from unrelated publications.
A part holds a random share of what one study measured. Positions count from the first letter of the parent shown.

Series 1
Target: Histone acetyltransferase KAT6A, both winged helices, GST fusion (KAT6A, Homo sapiens, UniProt Q92794, residues 1-181)
Technique: protein binding microarray
Molecule type: double-stranded DNA, one strand shown
Sample: in vitro
Tested at: not given
Notes: 8-mer, flanks averaged, mean of 2 arrays, mostly near background
Reference: not given
Reading: higher = stronger binding
Residues (chain): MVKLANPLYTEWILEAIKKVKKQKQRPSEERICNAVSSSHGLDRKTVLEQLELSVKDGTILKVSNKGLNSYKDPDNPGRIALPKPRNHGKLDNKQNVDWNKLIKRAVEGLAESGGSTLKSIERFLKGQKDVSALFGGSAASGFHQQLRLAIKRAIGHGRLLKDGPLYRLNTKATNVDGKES
Oligonucleotide | E-score
ATTTACTA | -0.0562
GCCATAAA | 0.00575
CGCCCAAC | -0.0685
CTGTCTTC | -0.114
GGTGTCAC | -0.0418
CGCGCTGC | 0.295
TGCACGAA | -0.0529
TGCAATAA | -0.0821
AGGATATG | -0.131
AAGCTACC | -0.021
ACAGGGGA | -0.157
CGATCGCG | 0.313
CAGACCTG | 0.00624
AGGCATCG | -0.0522
CCCTTTGA | -0.0957
CTCTTGGC | -0.0752
CGTCCTCC | 0.0583
GCTAACAA | 0.109
ACTCCATA | -0.158
AATCGAAA | 0.0101
AAAGTATT | -0.165
ACGGAGTG | 0.272
CACCCTTA | -0.208
CCGGCAAC | 0.189
CACTGGCG | 0.0627

Series 2
Target: PABPC1L2, full length, GST fusion (mouse, UniProt A0ABA7IW68)
Technique: RNAcompete
Molecule type: RNA
Sample: in vitro
Tested at: 20 nM
Notes: 7-mer, probes averaged, single round
Reference: mean of 7-mers
Reading: higher = stronger binding
Target sequence (chain): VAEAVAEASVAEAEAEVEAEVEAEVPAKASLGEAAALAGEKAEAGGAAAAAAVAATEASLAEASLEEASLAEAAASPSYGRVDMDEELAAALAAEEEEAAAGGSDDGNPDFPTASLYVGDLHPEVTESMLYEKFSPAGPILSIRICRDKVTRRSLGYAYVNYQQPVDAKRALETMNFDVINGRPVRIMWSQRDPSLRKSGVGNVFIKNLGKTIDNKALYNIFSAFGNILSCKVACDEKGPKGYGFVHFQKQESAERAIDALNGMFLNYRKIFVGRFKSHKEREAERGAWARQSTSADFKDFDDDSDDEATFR
Oligonucleotide | 7-mer Z-score
UCGUUAU | -0.402
CAUACGU | -0.215
ACGGUAG | -0.0663
GACCAGG | 0.0243
GAUAAUC | -0.233
UUCCCUG | -0.481
GCAACCG | -0.115
GAAAAGU | 3.13
AGUUUAU | -0.28
UAUGUAG | -0.0554
ACCUCUG | -0.347
AUUCACU | -0.157
ACGUGUC | -0.144
GUCGAUG | -0.177
UACCUCA | -0.137
GCACCAG | -0.103
GUAGCAU | 0.0442

Series 3
Target: Interferon regulatory factor 3, full length, phosphomimetic (IRF3, Homo sapiens, UniProt Q14653, residues 1-427, S386D/S396D/S398D/S402D/T404D/S405D)
UniProt Q14653, sequence (whole entry, unmodified, looked up): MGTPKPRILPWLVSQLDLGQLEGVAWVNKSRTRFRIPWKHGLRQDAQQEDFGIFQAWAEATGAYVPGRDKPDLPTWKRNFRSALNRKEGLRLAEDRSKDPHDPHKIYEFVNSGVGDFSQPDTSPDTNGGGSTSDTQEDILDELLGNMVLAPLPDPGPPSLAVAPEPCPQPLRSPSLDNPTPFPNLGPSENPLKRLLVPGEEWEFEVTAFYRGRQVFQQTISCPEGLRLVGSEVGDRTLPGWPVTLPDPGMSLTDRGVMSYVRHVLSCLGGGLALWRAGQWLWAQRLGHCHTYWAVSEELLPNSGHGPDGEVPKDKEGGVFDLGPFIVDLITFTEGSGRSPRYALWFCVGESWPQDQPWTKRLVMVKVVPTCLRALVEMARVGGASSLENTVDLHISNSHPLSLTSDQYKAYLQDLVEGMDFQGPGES
Technique: protein-binding microarray
Molecule type: double-stranded DNA, one strand shown
Sample: in vitro
Tested at: 2540 nM top
Notes: 60-bp whole probe
With: salmon DNA 0.4 mg/ml
Reference: random background probes
Reading: higher = stronger binding
Constant ends, left off below: GCCTAGCAC … GTCTTGATTCGCTTGACGCTGCTG
Oligonucleotide | fitted relative affinity
TTAGGTTTCGACAATGGGTTAGTGCTA | 1.81 z-score
TTAGGTAACGGTATCGGTTAGTGCTAG | 2.17 z-score
CATATATTCACTATAGTGTGGTGCTAG | 1.67 z-score
AACGGTTTCCTTTCCCTGACGTGCTAG | 10.3 z-score
GACGGTATCGACACTGGGGCCGTGCTA | 0.378 z-score
TTAAGTATCGGACTGGGTTAGTGCTAG | 1.38 z-score
TTAGATCTCGGTTTCGGTTAGTGCTAG | 4.77 z-score
GACGGTATCTACTATCGGGACGTGCTA | 0.396 z-score
GACGGTTTCGGTCACGGGACGTGCTAG | 5.29 z-score
GACGGTTCCCTTTTCGTGACGTGCTAG | 6.32 z-score
AAGCCATTGGTCTTCACTTGGTGCTAG | -0.917 z-score
TTAGATATCAGACTGGTTTAGTGCTAG | 0.0474 z-score
GACGAACTGGGGTAGCGAGACGTGCTA | -0.521 z-score
TTAGATTTCGGGTTACGATTAGTGCTA | 2.32 z-score
TCACCTGTCCTTTTCTTACTGTGCTAG | 2.57 z-score
GTAGGACTGGGACTGGGTTAGTGCTAG | -0.928 z-score
GACGGACTGGGATTGGGGACGTGCTAG | -0.6 z-score
ATTTTTATCAAATGTGGGATTGTGCTA | 0.757 z-score
AACGATATCGGGACTGGAGACGTGCTA | 0.107 z-score
CTTTCTATCTCTGTTTTTGCGTGCTAG | 5.42 z-score
TTAGGTCTCCTTATCCTTCAGTGCTAG | 2.65 z-score
TCACATACTAATTTCCAACTGTGCTAG | 1.43 z-score
TTAGGTATCGGACAGGGTTAGTGCTAG | 0.232 z-score
TCACCTTTTGCTTTACTACTGTGCTAG | 2.65 z-score
GACGGACTACTTTTCCTGACGTGCTAG | 0.349 z-score

Series 4
Target: Centromere-binding protein 1, full length, His-tagged (CBF1, Saccharomyces cerevisiae, UniProt P17106, residues 1-351)
UniProt P17106, sequence (whole entry, looked up): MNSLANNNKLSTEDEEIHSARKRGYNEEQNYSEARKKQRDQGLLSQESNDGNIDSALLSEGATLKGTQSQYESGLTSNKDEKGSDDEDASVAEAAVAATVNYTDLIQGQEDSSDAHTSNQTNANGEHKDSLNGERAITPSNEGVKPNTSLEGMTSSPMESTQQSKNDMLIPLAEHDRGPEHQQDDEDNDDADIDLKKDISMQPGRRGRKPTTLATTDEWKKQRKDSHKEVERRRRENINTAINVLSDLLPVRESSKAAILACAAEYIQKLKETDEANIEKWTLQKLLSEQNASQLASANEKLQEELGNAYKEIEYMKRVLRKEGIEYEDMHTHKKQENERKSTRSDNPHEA
Technique: competition protein-binding microarray
Molecule type: double-stranded DNA, one strand shown
Sample: in vitro
Tested at: 2 µM
Notes: whole 60-bp probe, lowest competitor level
With: Pho4 competitor, 0.05 µM
Reading: higher = stronger binding
Constant ends, left off below: … GTCTTGATTCGCTTGACGCTGCTG
Oligonucleotide | fluorescence intensity
GTCTTGTCTCATTGTCACCCTACTTTCCCCACTTCA | 83.2 a.u.
ACAGTGTCAAGCTGGCACGATCGTTCTTGCGCAGTC | 61.5 a.u.
CATTGCCGGCCCGGCCACGTGCAAAGTCTGGTTGAG | 1270 a.u.
AAATTACTAAGTTGGCGGGTGGGTGACGCCGTATGA | 69.1 a.u.
GCATTTGGTGAGATACACGTGCCAGTTGATAAGTAC | 1740 a.u.
TGGTCCTAAACTCACCACGTGAAATAGGTTGATAAT | 884 a.u.
GATGCCCTGCACCTTCGCGTGAGGAAAAGCAAAAAG | 63.1 a.u.
CTAACGAAGGTTTCTCACGTGTTTTACAAGCCAAGT | 1520 a.u.
CTTCTGTAAATTTGTCACTGTACTTGACGCGCCCCG | 72 a.u.
TAGCATCATTTTCGTCACGTGCAAAATCTGCCAGTA | 6510 a.u.
CATACCCAACCTTGCATAGTGGGTGAAGATATTTGT | 77.2 a.u.
TGCGCAACAACTTGCTGAGTGGGTGTATGTCTAGAA | 69.3 a.u.
CAATGAAAGTGAAAGCACGTGTCGGATTGTCAACAA | 1770 a.u.
TACTAGCACTGCCACACCGTGCAATCCATACAGGAT | 59.1 a.u.
GAAGGCCGATGCTGTGCCGTGATGGTCTTTTCCGCA | 50 a.u.
TGCGCAACAACTTGATCGGTGGGTGTATGTCTAGAA | 55.6 a.u.

Series 5
Target: ABI1, truncated, D143A, DHFR fusion (Arabidopsis thaliana)
Technique: DHFR PCA, deep sequencing
Sample: yeast
Notes: methotrexate growth selection, single substitutions
With: (+)-ABA 17 µM
Reference: wild-type fitted maximum
Reading: higher = stronger binding
Parent: PYL1, truncated, DHFR fusion (Arabidopsis thaliana); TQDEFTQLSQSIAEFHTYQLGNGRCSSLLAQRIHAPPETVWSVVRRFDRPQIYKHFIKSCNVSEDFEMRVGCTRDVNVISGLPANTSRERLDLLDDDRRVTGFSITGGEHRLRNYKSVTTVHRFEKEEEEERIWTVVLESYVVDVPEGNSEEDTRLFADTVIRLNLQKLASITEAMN
Substitution | relative binding score [%]
V118R | 99.7
R98Q | 76.4
T160W | 50.8
T120F | -3.19
S140H | -16.3
R90L | 22.8
L94Q | 4.3
E127P | 96
V145Y | -10.2
Y53E | 5.09
T154F | 5.75
R123F | 36.7
E174V | 53.9
F66V | 65.2
E4Q | 73.7
R98S | 54.5
H110N | 80.4
E174P | 27.4
D96T | 9.43
